Published values gathered from unrelated publications.
± marks the error that the study gave.

| Compound | assay | test system | setting | scale | endpoint | value |
| --- | --- | --- | --- | --- | --- | --- |
| CCCC[C@H](NC(=O)[C@@H](NC(=O)[C@H](CC(=O)O)NC(=O)[C@H](CCC(N)=O)NC(=O)[C@H](CC(C)C)NC(=O)[C@H](CC(C)C)NC(=O)[C@H](CCCN)NC(=O)[C@H](CCCNC(=N)N)NC(=O)[C@H](C)NC(=O)[C@H](CO)NC(=O)[C@H](CC(C)C)NC(=O)[C@H](CCC(N)=O)NC(=O)[C@H](CC)NC(=O)[C@H](CC(C)C)NC(=O)[C@@H](NC(=O)[C@H](CCCN)NC(=O)[C@H](CCCNC(=N)N)NC(=O)[C@H](Cc1ccc(O)cc1)NC(=O)[C@H](CO)NC(=O)[C@H](CCC(N)=O)NC(=O)[C@@H](NC(=O)[C@H](Cc1ccccc1)NC(=O)[C@@H](NC(=O)[C@H](C)NC(=O)[C@H](CC(=O)O)NC(=O)[C@@H](C)NC(=O)[C@H](Cc1ccc(O)cc1)NC)[C@@H](C)CC)[C@@H](C)O)C(C)C)[C@@H](C)CC)C(=O)N[C@@H](CC(=O)O)C(=O)N[C@@H](CCCNC(=N)N)C(=O)NCC | GH release | male rat, serum | subcutaneous, dose not given, 30 min | relative to: GHRH(1-29)NH2 | relative potency | 108 |
| N=C(N)NCCC[C@H](N)C(=O)N1CCC[C@H]1C(=O)NCC(=O)NCC(=O)O | diketopiperazine formation, Arrhenius plot, ESI-MS | 1-propanol | 70, 80, 90 °C, 0.5% acetic acid | – | activation energy | 23.7 ± 1.91 kcal/mol |
| CCCC[C@H](NC(=O)[C@@H](NC(=O)[C@H](CC(=O)O)NC(=O)[C@H](CCC(N)=O)NC(=O)[C@H](CC(C)C)NC(=O)[C@H](CC(C)C)NC(=O)[C@H](CCCN)NC(=O)[C@H](CCCNC(=N)N)NC(=O)[C@H](C)NC(=O)[C@H](CO)NC(=O)[C@H](CC(C)C)NC(=O)[C@H](CCC(N)=O)NC(=O)[C@H](CC)NC(=O)[C@H](CC(C)C)NC(=O)[C@@H](NC(=O)[C@H](CCCN)NC(=O)[C@H](CCCNC(=N)N)NC(=O)[C@H](Cc1ccc(O)cc1)NC(=O)[C@H](CO)NC(=O)[C@H](CCC(N)=O)NC(=O)[C@@H](NC(=O)[C@H](Cc1ccccc1)NC(=O)[C@@H](NC(=O)[C@H](C)NC(=O)[C@H](CC(=O)O)NC(=O)[C@@H](C)NC(=O)[C@H](Cc1ccc(O)cc1)NC)[C@@H](C)CC)[C@@H](C)O)C(C)C)[C@@H](C)CC)C(=O)N[C@@H](CC(=O)O)C(=O)N[C@@H](CCCNC(=N)N)C(=O)NC | GH release | rat, male, serum | subcutaneous, dose not given, 15 and 30 min | relative to: reference GHRH agonist JI-38 | relative potency | 3.6 to 4 fold |
| Cc1cc(O)c(C=O)c2c1C(=O)Oc1c(CO)c(O)c3c(c1O2)C(O)OC3=O (stereo not shown) | – | rat, male, streptozotocin-induced diabetes, cauda epididymis | 10 mg/kg, 9 weeks | – | sperm abnormalities | 6.33 ± 0.82% |
| CCCCSc1nnc(-c2ccc(N)cc2)o1 | nitric oxide scavenging | – | – | – | IC50 | 38.5 ± 6.1 µM |
| CCCC[C@H](NC(=O)[C@@H](NC(=O)[C@H](CC(=O)O)NC(=O)[C@H](CCC(N)=O)NC(=O)[C@H](CC(C)C)NC(=O)[C@H](CC(C)C)NC(=O)[C@H](CCCN)NC(=O)[C@H](CCCNC(=N)N)NC(=O)[C@H](C)NC(=O)[C@H](CO)NC(=O)[C@H](CC(C)C)NC(=O)[C@H](CCC(N)=O)NC(=O)[C@H](CC)NC(=O)[C@H](CC(C)C)NC(=O)[C@@H](NC(=O)[C@H](CCCN)NC(=O)[C@H](CCCNC(=N)N)NC(=O)[C@H](Cc1ccc(O)cc1)NC(=O)[C@H](CO)NC(=O)[C@H](CCC(N)=O)NC(=O)[C@@H](NC(=O)[C@H](Cc1ccccc1)NC(=O)[C@@H](NC(=O)[C@H](C)NC(=O)[C@H](CC(=O)O)NC(=O)[C@@H](C)NC(=O)CCc1ccc(O)cc1)[C@@H](C)CC)[C@@H](C)O)C(C)C)[C@@H](C)CC)C(=O)N[C@@H](CC(=O)O)C(=O)N[C@H](CCCNC(=N)N)C(=O)NC | GH release | male rat, serum | subcutaneous, dose not given, 30 min | relative to: GHRH(1-29)NH2 | relative potency | 253 |
| COc1ccc2c(c1)c(CC(=O)OCC(=O)c1ccccc1)c(C)n2C(=O)c1ccc(Cl)cc1 | hot plate test | BALB/c mice | 50 mg/kg, 30 min | – | latency of nociceptive response | 13.6 ± 1.23 s |
| CCCCCCCCCCCCCCCCOP(=O)(O)Oc1c2c(c(OP(=O)(O)OCCCCCCCCCCCCCCCC)c3c1C1CC3c3cc4c(cc31)C1CC4c3ccccc31)C1CC2c2cc3c(cc21)C1CC3c2ccccc21 | – | liposomes | 30 min | – | dye leakage | < 50% |
| C=C(c1cc(F)c(C(=O)O)c(F)c1)c1cc2c(cc1C)C(C)(C)CCC2(C)C | RNA sequencing, measured: Cga mRNA | rat, brain | dose not given, 24 h, single dose | relative to: vehicle | log2 fold change | 2.91 |
| [2H]C([2H])([2H])C(c1cc2nnc(-c3cc(F)ccc3F)n2nc1OCc1ncnn1C)(C([2H])([2H])[2H])C([2H])([2H])[2H] | – | amygdala-kindled Wistar rats, amygdala | oral, 6 mg/kg, 2 h before stimulation | relative to: baseline | afterdischarge duration change | -46% |

A few entries again:
| Compound | assay | test system | setting | scale | endpoint | value |
| --- | --- | --- | --- | --- | --- | --- |
| Cc1cc(O)c(C=O)c2c1C(=O)Oc1c(CO)c(O)c3c(c1O2)C(O)OC3=O (stereo not shown) | – | rat, male, streptozotocin-induced diabetes, cauda epididymis | 10 mg/kg, 9 weeks | – | sperm abnormalities | 6.33 ± 0.82% |
